Assay results collected from several papers.
Each line is one published result; not all experiments were run side by side. pEC50, pIC50: −log10 of the molar value.
Sequence of UniProt Q14289 (whole entry, looked up): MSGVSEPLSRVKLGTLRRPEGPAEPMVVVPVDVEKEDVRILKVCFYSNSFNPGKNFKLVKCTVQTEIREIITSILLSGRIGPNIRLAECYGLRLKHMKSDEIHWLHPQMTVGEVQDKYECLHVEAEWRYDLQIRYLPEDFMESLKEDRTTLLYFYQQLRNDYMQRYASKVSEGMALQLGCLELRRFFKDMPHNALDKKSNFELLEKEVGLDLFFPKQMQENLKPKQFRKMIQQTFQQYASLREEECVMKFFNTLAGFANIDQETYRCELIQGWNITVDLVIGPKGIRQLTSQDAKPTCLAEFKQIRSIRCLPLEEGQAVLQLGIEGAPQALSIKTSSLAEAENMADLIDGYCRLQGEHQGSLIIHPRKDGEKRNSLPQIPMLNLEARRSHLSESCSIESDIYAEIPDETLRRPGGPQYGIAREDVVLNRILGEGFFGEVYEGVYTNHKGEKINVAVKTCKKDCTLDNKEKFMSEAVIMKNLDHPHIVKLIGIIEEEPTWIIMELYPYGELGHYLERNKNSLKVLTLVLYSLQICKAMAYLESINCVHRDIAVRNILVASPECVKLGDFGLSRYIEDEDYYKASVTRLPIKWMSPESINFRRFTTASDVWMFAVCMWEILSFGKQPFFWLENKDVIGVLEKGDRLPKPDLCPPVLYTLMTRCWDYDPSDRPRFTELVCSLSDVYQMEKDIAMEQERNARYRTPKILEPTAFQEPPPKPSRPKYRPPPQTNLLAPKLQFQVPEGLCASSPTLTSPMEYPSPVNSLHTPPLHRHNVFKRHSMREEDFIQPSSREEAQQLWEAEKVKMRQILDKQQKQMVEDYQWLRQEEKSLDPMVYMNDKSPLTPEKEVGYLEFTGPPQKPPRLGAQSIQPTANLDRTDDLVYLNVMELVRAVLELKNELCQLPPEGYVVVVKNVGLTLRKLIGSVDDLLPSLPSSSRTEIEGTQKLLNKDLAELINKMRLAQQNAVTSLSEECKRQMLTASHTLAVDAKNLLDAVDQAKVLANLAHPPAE

The remaining binding of `[2H]c1c([2H])c([C@]2([2H])CCCN2C(=O)C(C)(C)Oc2ccc3cn[nH]c3c2)c([2H])c([2H])c1C([2H])([2H])[2H]` is reported as 78% (Protein-tyrosine kinase 2-beta (PTK2B, Homo sapiens, UniProt Q14289); binding, competition with immobilised ligand; 1 µM).
`C[N+]1=C2C=C(N/C=C/c3ccc(O)cc3)C(=O)c3[nH]cc(c32)CC1` gave a pIC50 of 6.94 (Plasmodium falciparum; parasite growth, SYBR Green; 3D7; blood stage).
The pIC50 of `CCCCCCNC[C@H](O)c1cc(Cl)cc2c1-c1ccc(Cl)cc1C2` is reported as 7.48 (Plasmodium falciparum; parasite growth, SYBR Green; W2; 48 h, drug-resistant strain, blood stage).
The pEC50 of `CC(c1ccc(Cl)c(Cl)c1)c1nn2c(-c3ccccc3F)nnc2s1` (stereo not drawn) is reported as 6.93 (Plasmodium falciparum; parasite growth, SYBR Green; 3D7; 72 h).
The pIC50 of `CCCCCCCCNC[C@@H](O)c1cc(Cl)cc2c1-c1ccc(Cl)cc1C2` is reported as 8.30 (Plasmodium falciparum; parasite growth, SYBR Green; W2; 48 h, drug-resistant strain, blood stage).
`Cc1c(F)cccc1NC(=N)CC(O)c1cc2c(F)cc(F)cc2c2cc(C(F)(F)F)ccc12` (stereo not drawn) gave a pIC50 of 8.03 (Plasmodium falciparum; parasite growth, ELISA; 3D7; 72 h, blood stage).
With `CCCCCCCCCCOc1cc2c(O)c(C(=O)OCC)cnc2cc1OCC` the pIC50 was over 8.24 (Plasmodium falciparum; parasite growth, SYBR Green; blood stage).
With `O=C1C(NCCc2ccc(O)cc2)=CC2=NCCc3c[nH]c1c32` the pIC50 was 6.71 (Plasmodium falciparum; parasite growth, SYBR Green; 3D7; blood stage).
With `CCSc1nnc(C2CCCN(CC(=O)Nc3cc(C(F)(F)F)ccc3Cl)C2)n1CC` (stereo not drawn) the pEC50 was 5.45 (Plasmodium falciparum; parasite growth, SYBR Green; 3D7; 72 h).
The pIC50 of `NC1=CC2=NCCc3c[nH]c(c32)C1=O` is reported as 6.59 (Plasmodium falciparum; parasite growth, SYBR Green; 3D7; blood stage).
`Cc1nc(Nc2ccc(S(F)(F)(F)(F)F)cc2)c2c(C)noc2n1` has a pEC50 of 6.03 (Plasmodium falciparum; parasite growth, SYBR Green; 3D7; 72 h).
For `CCCCNCC(O)c1cc(Cl)cc2c1-c1ccc(Cl)cc1C2` (racemic), the pIC50 was 7.94 (Plasmodium falciparum; parasite growth, SYBR Green; W2; 48 h, drug-resistant strain, blood stage).
